Published values collected from several papers.
Protocols differ between the studies behind these lines. ± marks the error that the study gave.

CN(C)c1ccc(CCC(=O)N2C(=O)C3(NC(c4ccc(F)cc4)C4(C(=O)Nc5ccccc54)N3Cc3ccc(F)cc3)c3ccccc32)cc1 (centres unmarked) gave an IC50 of greater than 100 µM (L02; cell growth or viability, MTT; 48 h).
For CC[C@@H](C)N1C(=O)C2=Nc3ccccc3CN2C1=S, IC50 read “inactive” (CCRF-CEM; cell viability, resazurin; 72 h).
For CC1(C)CCC(CN2CCN(c3ccc(C(=O)NS(=O)(=O)c4ccc(NCC5CCOCC5)c([N+](=O)[O-])c4)c(Oc4cnc5[nH]ccc5c4)c3)CC2)=C(c2ccc(Cl)cc2)C1, the IC50 was 0.0052 ± 0.0016 µM (RS4-11; sub-G0/G1 accumulation, PI staining, FACS; 24 h).
With COC(=O)N1c2ccc3c(nc(Cc4ccccc4)n3[C@@H]3CCC[C@@H](C(=O)O)C3)c2CC[C@@H]1C the IC50 was 0.158 µM (MDA-MB-453; cell growth or viability, ATP luminescence; 10 days).
For COC1CN([C@H]2CC[C@H]([C@@]3(C)Oc4c(Cl)cc(C(=O)NCc5c(SC)cc(C)[nH]c5=O)c(C)c4O3)CC2)C1, “log2 fold change” read 5.67 (RNA-seq, measured: RUNX1T1; human, whole blood; dose not given, 24 h; baseline: pretreatment baseline).
For O=C1/C(=N\c2cccc(Cl)c2)c2ccccc2N1Cc1ccccc1, the IC50 was 50.9 µM (L02; cell growth or viability, MTT; 48 h).
C[C@H](c1cccc2ccccc12)N1C(=O)C2=Nc3ccccc3CN2C1=S gave an IC50 of 0.52 ± 0.05 µM (CCRF-CEM; resazurin; 72 h).
COc1ccnc(-c2cc(OC)ccn2)c1.Cc1ccc2c(Cl)cc(Cl)c([O-])c2n1.Cc1ccc2c(Cl)cc(Cl)c([O-])c2n1.[Co+2] gave an IC50 of 70.24 ± 0.63 µM (HL-7702 normal hepatocytes; cell viability, MTT; 48 h).
With COc1ccc2c(c1)Cc1c-2nc(N)c(C#N)c1-c1ccc(CO)o1 the IC50 was 53.4 µM (HuT78; cell growth or viability, ATP luminescence).
The IC50 of Cc1nc(Nc2ccc3c(c2)/C(=C/c2ccccc2)C(=O)N3)c2ccccc2n1 is reported as 6.67 µM (H22; cell growth or viability, MTT).
CCOc1cncc(-c2ccc(NC(=O)C3(c4ccnc(NS(=O)(=O)C5CC5)n4)CCOCC3)nc2)n1 has an IC50 of 4.04 µM (SF-268; cell growth or viability, ATP luminescence; 72 h).
For Cc1ccc(CN2C3(NC(c4ccc(C)cc4)C24C(=O)Nc2ccccc24)C(=O)Nc2ccccc23)cc1 (centres unmarked), the IC50 was 35.7 µM (L02; cell growth or viability, MTT; 48 h).
COc1ccc(CC[C@H]2OC(=O)[C@@H]3CCCCN3C(=O)C(=O)C(C)(C)COC(=O)C=CCCN(C)C(=O)[C@H](CC(C)C)N(C)C(=O)[C@H]3CCCN3C(=O)[C@H](Cc3ccccc3)N(C)C(=O)[C@H](Cc3ccc(OC(C)(C)C)cc3)NC(=O)CCC(=O)Nc3cccc2c3)cc1OC has an IC50 of greater than 20 µM (HUVEC; thymidine uptake, inhibitor).
NC(=S)NN=Cc1ccc([N+](=O)[O-])o1 has an IC50 of greater than 100 µM (IMR-90; cell growth or viability, resazurin).
With O=C1c2c(O)ccc(O)c2C(=O)c2c(NCCNCCO)ccc(NCCNCCO)c21 the IC50 was 0.031 ± 0.012 µM (ARPE-19; cytotoxicity, CCK-8; 48 h).
For CNS(=O)(=O)Nc1nccc(Cc2c(C)c3ccc(Oc4ncccc4F)cc3oc2=O)c1F, the IC50 was 0.0153 µM (A2058; cell viability; 7 days).
The IC50 of O=C1C(Cl)=C(Cl)C(=O)c2c1cccc2[N+](=O)[O-] is reported as 79.8 µM (MOLT-3; cell growth or viability, XTT).
For C1=[N+]2CCCC[N+]3=Cc4ccc5[n]4[Au-]23[n]2c1ccc2-c1nc2ccccc2nc1-5.F[P-](F)(F)(F)(F)F, the IC50 was 3.7 µM (SF-539; NCI60 five-dose screen).
With COc1ccc2c(c1)CN1C(=S)N([C@H](C)c3ccccc3)C(=O)C1=N2 the IC50 was 1.53 ± 0.15 µM (CCRF-CEM; resazurin; 72 h).
COc1cc(C(=O)N/N=C/c2cccc3ccccc23)cc(OC)c1OC has an IC50 of 0.0423 µM (RS4-11; cell growth or viability, MTT; 48 h).
COc1ccc(CC[C@H]2OC(=O)[C@@H]3CCCCN3C(=O)C(=O)C(C)(C)COC(=O)C=CCCN(C)C(=O)[C@H](Cc3ccc(F)cc3)NC(=O)[C@@H](Cc3ccccc3)N(C)C(=O)[C@@H]3CCCN3C(=O)[C@H](CC(C)C)N(C)C(=O)CCC(=O)Nc3cccc2c3)cc1OC gave an IC50 of greater than 20 µM (HUVEC; thymidine uptake, inhibitor).
For C[C@H](c1ccccc1)N1C(=O)C2=Nc3ccc(Cl)cc3CN2C1=S, the IC50 was 0.38 ± 0.04 µM (CCRF-CEM; resazurin; 72 h).
For Cc1[nH]c(=S)[nH]c(=O)c1/N=N/c1nnc(S)s1, the IC50 was 17.1 ± 2.54 µg/mL (Vero; MTT; 72 h).
For COc1ccc(CC[C@H]2OC(=O)[C@@H]3CCCCN3C(=O)C(=O)C(C)(C)COC(=O)C=CCCN(C)C(=O)[C@H](CC(C)C)N(C)C(=O)[C@H]3CCCN3C(=O)[C@H](Cc3ccc(-c4ccccc4)cc3)NC(=O)[C@H](c3ccccc3)NC(=O)CCC(=O)Nc3cccc2c3)cc1OC, the IC50 was 0.194 ± 0.051 µM (HUVEC; thymidine uptake, inhibitor).
The IC50 of CC(C)c1ccc(N(C)c2ccc3c(c2)OCC[C@H]3CNc2cnccc2C(=O)O)cc1 is reported as no less than 10 µM (J82; cell growth or viability, ATP luminescence; 7 days).
CC[C@H](C)[C@H](NC(=O)[C@H](CCCCN)NC(=O)[C@H]1CCC[C@@H]1NC(=O)[C@H](CC(C)C)NC(=O)CN)C(=O)N[C@H](CC(=O)N[C@@H](CCCCN)C(=O)N[C@@H](CCCCN)C(=O)N[C@H]1CCC[C@@H]1C(=O)N[C@@H](CC(C)C)C(=O)N[C@@H](CCCCN)C(=O)N[C@@H](CO)CC(=O)N[C@@H](Cc1ccccc1)C(N)=O)[C@@H](C)CC gave an IC50 of 25.4 µg/mL (HUVEC; cytotoxicity).
COc1ccc(CC[C@H]2OC(=O)[C@@H]3CCCCN3C(=O)C(=O)C(C)(C)COC(=O)C=CCCN(C)C(=O)[C@H](CC(C)C)N(C)C(=O)[C@H]3CCCN3C(=O)[C@H](c3ccccc3)NC(=O)[C@H](c3ccccc3)NC(=O)CCC(=O)Nc3cccc2c3)cc1OC has an IC50 of 0.261 ± 0.068 µM (HUVEC; thymidine uptake, inhibitor).
CCCC[N+]1=c2cc3c4cc2[O][Mn-2]1(=[C]=O)(=[C]=O)(=[C]=O)[n+]1ccc(cc1)C(=O)OCCOC(=O)c1cc[n+](cc1)[Mn-2](=[C]=O)(=[C]=O)(=[C]=O)([O]3)[N+]=4CCCC has an IC50 of greater than 50 µM (HEK293; cell growth, MTT; 48 h, LED photolysed 1 h).
For Cc1ccnc(-c2cc(C)ccn2)c1.[Co+2].[O-]c1c(I)cc(I)c2cccnc12.[O-]c1c(I)cc(I)c2cccnc12, the IC50 was 80.45 ± 0.33 µM (HL-7702 normal hepatocytes; cell viability, MTT; 48 h).
C=CC(=O)N1CCCC(n2c(=O)c3ncccc3n(Cc3ccc(Oc4ccccc4)cc3)c2=O)C1 (centres unmarked) gave an IC50 of 9 µM (L-1236; cell growth or viability, MTT; 72 h).
With COc1ccc(CC[C@H]2OC(=O)[C@@H]3CCCCN3C(=O)C(=O)C(C)(C)COC(=O)C=CCCN(C)C(=O)[C@H](CC(C)C)N(C)C(=O)[C@@H]3CCCN3C(=O)[C@H](Cc3ccccc3)N(C)C(=O)[C@@H](Cc3ccccc3)NC(=O)CCC(=O)Nc3cccc2c3)cc1OC the IC50 was greater than 20 µM (HUVEC; thymidine uptake, inhibitor).
With CN(C)CCOc1cc(NC(=O)c2cccc(C(=O)Nc3cc(OCCN(C)C)c4ccccc4n3)n2)nc2ccccc12 the IC50 was 2.3 µM (U2OS; cell growth or viability, ATP luminescence; 72 h).
Cc1ccc2c(Cl)cc(Cl)c([O-])c2n1.Cc1ccc2c(Cl)cc(Cl)c([O-])c2n1.[Co+2].c1ccc2nc3c4cccnc4c4ncccc4c3nc2c1 has an IC50 of 70.3 ± 1.11 µM (HL-7702 normal hepatocytes; cell viability, MTT; 48 h).
For CCCc1cc2cc(-n3cc(C)c4c3CC(C)(C)CC4=O)cc(N3CCC(O)CC3)c2c(=O)[nH]1, the IC50 was 5.65 µM (SK-OV-3; cell growth or viability, MTS).
For COc1ccc(CC[C@H]2OC(=O)[C@@H]3CCCCN3C(=O)C(=O)C(C)(C)COC(=O)C=CCCN(C)C(=O)[C@H](Cc3ccccc3)NC(=O)[C@H](Cc3ccccc3)N(C)C(=O)[C@H]3CCCN3C(=O)[C@H](CC(C)C)N(C)C(=O)CCC(=O)Nc3cccc2c3)cc1OC, the IC50 was greater than 20 µM (HUVEC; thymidine uptake, inhibitor).
With Cc1ccc([N+](=O)[O-])cc1S(=O)(=O)N(C)/N=C/c1cnc2ccc(Br)cn12 the IC50 was less than 0.001 µM (SR; cell growth or viability).
COc1ccc(CC[C@H]2OC(=O)[C@@H]3CCCCN3C(=O)C(=O)C(C)(C)COC(=O)C=CCCN(C)C(=O)[C@H](CC(C)C)N(C)C(=O)[C@H]3CCCN3C(=O)[C@H](C)N(C)C(=O)[C@H](Cc3ccccc3)NC(=O)CCC(=O)Nc3cccc2c3)cc1OC gave an IC50 of greater than 20 µM (HUVEC; thymidine uptake, inhibitor).
O=C(CCCCCONC(=O)c1nc(-c2ccc([N+](=O)[O-])cc2)cs1)NO has an IC50 of 3.52 µM (neonatal foreskin fibroblasts; cytotoxicity, sulforhodamine B; 72 h).
For CN1CCC(N[C@@H]2CCc3[nH]c4c(C(N)=O)ccc(-c5ccccc5Cl)c4c3C2)CC1, the IC50 was 0.00218 µM (HGC-27; cell growth or viability).
For N#Cc1ccc(-c2csc(C(=O)NOCCCCCC(=O)NO)n2)cc1, the IC50 was 6.53 µM (neonatal foreskin fibroblasts; cytotoxicity, sulforhodamine B; 72 h).
For CC[C@H](C)[C@H](NC(=O)C[C@H](CCCCN)NC(=O)[C@H](CCCCN)NC(=O)C[C@@H](NC(=O)[C@@H](NC(=O)C[C@H](CCCCN)NC(=O)[C@H](Cc1ccccc1)NC(=O)C[C@H](CC(C)C)NC(=O)CN)[C@@H](C)CC)[C@@H](C)CC)C(=O)N[C@@H](C)CC(=O)N[C@@H](CCCCN)C(=O)N[C@@H](CO)CC(=O)N[C@@H](Cc1ccccc1)C(N)=O, the IC50 was greater than 128 µg/mL (HUVEC; cytotoxicity).
For Cn1ncc(-c2ccc3c(=O)[nH]nc(CN)c3c2)c1-c1c(F)c(Cl)cc(OC2CC2)c1C#N, the IC50 was 0.07 µM (SF-268; cell viability, inhibitor, CellTiter-Glo; 120 h, baseline-subtracted).
OCCCNc1c2ccccc2nc2ccccc12 gave an IC50 of greater than 100 µM (ARPE-19; cytotoxicity, CCK-8; 48 h).
For Cc1ncsc1-c1ccc(C(C)NC(=O)C2CC(O)CN2C(=O)C(NC(=O)CCCCCCCCCCN2CCCC(Nc3ncc(Cl)c(Nc4ccccc4S(=O)(=O)C(C)C)n3)C2)C(C)(C)C)cc1 (centres unmarked), “log2 fold change” read -2.05 (22Rv1; RNA-seq, measured: PGBD5 mRNA; concentration not given; baseline: DMSO).

A few entries again:
COc1cc(C(=O)N/N=C/c2cccc3ccccc23)cc(OC)c1OC has an IC50 of 0.0423 µM (RS4-11; cell growth or viability, MTT; 48 h).
COc1ccc(CC[C@H]2OC(=O)[C@@H]3CCCCN3C(=O)C(=O)C(C)(C)COC(=O)C=CCCN(C)C(=O)[C@H](Cc3ccc(F)cc3)NC(=O)[C@@H](Cc3ccccc3)N(C)C(=O)[C@@H]3CCCN3C(=O)[C@H](CC(C)C)N(C)C(=O)CCC(=O)Nc3cccc2c3)cc1OC gave an IC50 of greater than 20 µM (HUVEC; thymidine uptake, inhibitor).
For C[C@H](c1ccccc1)N1C(=O)C2=Nc3ccc(Cl)cc3CN2C1=S, the IC50 was 0.38 ± 0.04 µM (CCRF-CEM; resazurin; 72 h).
For Cc1[nH]c(=S)[nH]c(=O)c1/N=N/c1nnc(S)s1, the IC50 was 17.1 ± 2.54 µg/mL (Vero; MTT; 72 h).
For COc1ccc(CC[C@H]2OC(=O)[C@@H]3CCCCN3C(=O)C(=O)C(C)(C)COC(=O)C=CCCN(C)C(=O)[C@H](CC(C)C)N(C)C(=O)[C@H]3CCCN3C(=O)[C@H](Cc3ccc(-c4ccccc4)cc3)NC(=O)[C@H](c3ccccc3)NC(=O)CCC(=O)Nc3cccc2c3)cc1OC, the IC50 was 0.194 ± 0.051 µM (HUVEC; thymidine uptake, inhibitor).
